Experimental data pooled from the literature.
Lines come from different studies, so protocols differ. Numbers after ± are the reported error.

| Compound | assay | test system | setting | tissue uptake |
| --- | --- | --- | --- | --- |
| O=C([O-])CN1CCN(CC(=O)[O-])CCN(CC(=O)NCCc2ccc3c(c2)C2C=CCC2C(c2cc4c(cc2Br)OCO4)N3)CCN(CC(=O)[O-])CC1.[111In+3] (stereo not drawn) | – | mouse, Hec50 endometrial tumour, brain | 0.5 h post injection | 0.33 ± 0.01 %ID/g |
| CC(C)[C@H](NC(=O)[C@@H]1CCCN1C(=O)[C@H](CCCNC(=N)N)NC(=O)[C@H](CS)NC(=O)[C@H](Cc1c[nH]c2ccccc12)NC(=O)[C@H](CCCNC(=N)N)NC(=O)[C@@H](Cc1ccccc1)NC(=O)[C@H](Cc1c[nH]cn1)NC(=O)[C@H](CCC(=O)O)NC(=O)[C@H](CS)NC(=O)[C@H](CS)NC(=O)CNC(=O)[C@@H]1CC(=O)N[C@@H](CCCNC(=N)N)C(=O)NCC(=O)N[C@@H](CC(=O)O)C(=O)N[C@H](Cc2ccc(O)cc2)C(=O)N1)C(N)=O [technetium-99m labelled] | – | C57 mouse, female, B16/F1 melanoma, stomach | intravenous, 0.037 MBq, 0.5 h | 3.87 ± 1 %ID/g |
| O=C([O-])CN1CCN(CC(=O)[O-])CCN(CC(=O)[O-])CCN(CC(=O)[O-])CC1.[64Cu+2] | – | healthy athymic nude mice, muscle | intravenous, 4 h | 0.09 %ID/g |
| CCCC[C@@H]1NC(=O)[C@@H](NC(=O)[C@H](CCC(=O)O)NC(=O)CNC(=O)CN2CCN(CC(=O)O)CCN(CC(=O)O)CCN(CC(=O)O)CC2)CCCCNC(=O)C[C@@H](C(N)=O)NC(=O)[C@H](C(C)C)NC(=O)[C@@H]2CCCN2C(=O)[C@H](CCCNC(=N)N)NC(=O)CNC(=O)[C@H](Cc2c[nH]c3ccccc23)NC(=O)[C@H](CCCNC(=N)N)NC(=O)[C@@H](Cc2ccccc2)NC(=O)[C@H](Cc2c[nH]cn2)NC(=O)[C@H](CCC(=O)O)NC1=O [gallium-67 labelled] | – | normal C57 mice, bone | intravenous, 0.037 MBq/mouse, 4 h | 0.42 ± 0.16 %ID/g |
| CC(C)[C@H](NC(=O)[C@@H]1CCCN1C(=O)[C@H](CCCNC(=N)N)NC(=O)[C@H](CS)NC(=O)[C@H](Cc1c[nH]c2ccccc12)NC(=O)[C@H](CCCNC(=N)N)NC(=O)[C@@H](Cc1ccccc1)NC(=O)[C@H](Cc1c[nH]cn1)NC(=O)[C@H](CCC(=O)O)NC(=O)[C@H](CS)NC(=O)[C@H](CS)NC(=O)[C@@H]1CC(=O)N[C@@H](CCCNC(=N)N)C(=O)NCC(=O)N[C@@H](CC(=O)O)C(=O)N[C@H](Cc2ccc(O)cc2)C(=O)N1)C(N)=O [technetium-99m labelled] | – | C57 mouse, female, B16/F1 melanoma, muscle | intravenous, 0.037 MBq, 2 h | 0.2 ± 0.11 %ID/g |
| O=C(O)C1CN(Cc2ccc(-c3noc(-c4ccc(OCC[18F])c(C(F)(F)F)c4)n3)cc2)C1 | – | male Sprague-Dawley rat, muscle | intravenous, 5 min | 0.121 ± 0.013 %ID/g |
| OCc1cn(Cc2ccc(-c3noc(-c4ccc(OCC[18F])c(C(F)(F)F)c4)n3)cc2)nn1 | – | female Lewis rat, spleen | intravenous, 30 min | 1.36 ± 0.04 %ID/g |
| CCCC[C@H](NC(=O)CN1CCC(NC(=O)CN2CCN(CC(=O)O)CCN(CC(=O)O)CCN(CC(=O)O)CC2)CC1)C(=O)N[C@H]1CC(=O)NCCCC[C@@H](C(N)=O)NC(=O)[C@H](Cc2c[nH]c3ccccc23)NC(=O)[C@H](CCCNC(=N)N)NC(=O)[C@@H](Cc2ccccc2)NC(=O)[C@H](Cc2c[nH]cn2)NC1=O [gallium-68 labelled] | – | C57BL/6J mice male B16-F10 tumour, heart | 1 h post injection, unblocked | 0.3 ± 0.1 %ID/g |
| CCCC[C@H](NC(=O)CNC(=O)CNC(=O)CN1CCN(CC(=O)O)CCN(CC(=O)O)CCN(CC(=O)O)CC1)C(=O)N[C@H]1CC(=O)NCCCC[C@@H](C(N)=O)NC(=O)[C@H](Cc2c[nH]c3ccccc23)NC(=O)[C@H](CCCNC(=N)N)NC(=O)[C@@H](Cc2ccccc2)NC(=O)[C@H](Cc2c[nH]cn2)NC1=O [copper-64 labelled] | – | C57 mouse B16/F1 melanoma, heart | 4 h | 1.45 ± 0.13 %ID/g |
| C[C@H](CN(C)Cc1ccccc1)NC(=O)c1ccc(-c2noc(C(F)(F)[18F])n2)cc1 | PET imaging | female Sprague-Dawley rats, cerebellum | intravenous, 30 min | 1.08 ± 0.25 SUV |
| CCCC[C@H](NC(=O)CNC(=O)CNC(=O)CN1CCN(CC(=O)O)CCN(CC(=O)O)CC1)C(=O)N[C@H]1CC(=O)NCCCC[C@@H](C(N)=O)NC(=O)[C@H](Cc2c[nH]c3ccccc23)NC(=O)[C@H](CCCNC(=N)N)NC(=O)[C@@H](Cc2ccccc2)NC(=O)[C@H](Cc2c[nH]cn2)NC1=O [gallium-67 labelled] | – | female C57 mice, B16/F1 melanoma, bone | intravenous, 0.037 MBq, 0.5 h | 1.95 ± 0.08 %ID/g |
| NC12CNCCNCC(NCc3ccc(CNC(=O)CCCC(=O)NCc4ccc(-c5nncnn5)cc4)cc3)(CNCCNC1)CNCCNC2.[64Cu+2] | – | athymic nude mice, SW1222 xenograft, tumor | 24 h post-injection, 24 h pretargeting interval, added: huA33-TCO pretargeting | 7.38 ± 2.02 %ID/g |
| CCCC[C@H](NC(=O)CNC(=O)CNC(=O)CN1CCN(CC(=O)O)CCN(CC(=O)O)CC1)C(=O)N[C@H]1CC(=O)NCCCC[C@@H](C(N)=O)NC(=O)[C@H](Cc2c[nH]c3ccccc23)NC(=O)[C@H](CCCNC(=N)N)NC(=O)[C@@H](Cc2ccccc2)NC(=O)[C@H](Cc2c[nH]cn2)NC1=O [copper-64 labelled] | – | female C57 mouse, B16/F1 melanoma, tumor | intravenous, 0.037 MBq, 4 h | 12.7 ± 2.68 %ID/g |
| CN(C)c1ccc(-c2nc3ccc(OCCCCCN4CCN5CCN(CC4)CC(=O)[O][Al]([18F])[O]C(=O)C5)cc3s2)cc1 | – | ICR mouse, bone | intravenous, 60 min | 1.44 ± 0.53 %ID/g |
| CN1C(=O)[C@@H](Cc2ccc(O)c(I)c2)NC(=O)CNC(=O)[C@H](Cc2ccc3ccccc3c2)NC(=O)[C@H](CCCNC(=N)N)NC(=O)[C@H]1CCCNC(=O)c1ccc(CNC(=O)CN2CCN(CC(=O)O)CCN(CC(=O)O)CCN(CC(=O)O)CC2)cc1 [lutetium-177 labelled] | item: 177Lu radioactivity | female CB-17 SCID mice, Daudi xenograft, kidney | intravenous, 0.16 nmol per mouse, 6 h | 2.52 ± 0.33 %ID/g |

Repeated from above:
| Compound | assay | test system | setting | tissue uptake |
| --- | --- | --- | --- | --- |
| CCCC[C@@H]1NC(=O)[C@@H](NC(=O)[C@H](CCC(=O)O)NC(=O)CNC(=O)CN2CCN(CC(=O)O)CCN(CC(=O)O)CCN(CC(=O)O)CC2)CCCCNC(=O)C[C@@H](C(N)=O)NC(=O)[C@H](C(C)C)NC(=O)[C@@H]2CCCN2C(=O)[C@H](CCCNC(=N)N)NC(=O)CNC(=O)[C@H](Cc2c[nH]c3ccccc23)NC(=O)[C@H](CCCNC(=N)N)NC(=O)[C@@H](Cc2ccccc2)NC(=O)[C@H](Cc2c[nH]cn2)NC(=O)[C@H](CCC(=O)O)NC1=O [gallium-67 labelled] | – | normal C57 mice, bone | intravenous, 0.037 MBq/mouse, 4 h | 0.42 ± 0.16 %ID/g |
